Results gathered from unrelated publications.
Protocols differ between the studies behind these lines. Numbers after ± are the reported error.
SULT1C4: Sulfotransferase 1C4 (SULT1C4, Homo sapiens, UniProt O75897)
UniProt O75897, sequence (whole entry, looked up): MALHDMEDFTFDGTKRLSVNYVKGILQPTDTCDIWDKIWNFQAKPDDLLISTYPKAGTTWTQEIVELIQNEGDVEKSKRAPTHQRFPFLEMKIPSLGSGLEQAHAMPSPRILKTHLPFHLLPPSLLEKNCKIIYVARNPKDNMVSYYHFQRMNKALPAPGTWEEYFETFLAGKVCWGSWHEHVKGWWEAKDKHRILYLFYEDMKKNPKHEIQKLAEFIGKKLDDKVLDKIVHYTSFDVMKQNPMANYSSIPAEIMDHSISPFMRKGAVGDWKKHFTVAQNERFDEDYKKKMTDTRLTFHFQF
UGT1A1: UDP-glucuronosyltransferase 1A1 (UGT1A1, Homo sapiens, UniProt P22309)
UniProt P22309, sequence (whole entry, looked up): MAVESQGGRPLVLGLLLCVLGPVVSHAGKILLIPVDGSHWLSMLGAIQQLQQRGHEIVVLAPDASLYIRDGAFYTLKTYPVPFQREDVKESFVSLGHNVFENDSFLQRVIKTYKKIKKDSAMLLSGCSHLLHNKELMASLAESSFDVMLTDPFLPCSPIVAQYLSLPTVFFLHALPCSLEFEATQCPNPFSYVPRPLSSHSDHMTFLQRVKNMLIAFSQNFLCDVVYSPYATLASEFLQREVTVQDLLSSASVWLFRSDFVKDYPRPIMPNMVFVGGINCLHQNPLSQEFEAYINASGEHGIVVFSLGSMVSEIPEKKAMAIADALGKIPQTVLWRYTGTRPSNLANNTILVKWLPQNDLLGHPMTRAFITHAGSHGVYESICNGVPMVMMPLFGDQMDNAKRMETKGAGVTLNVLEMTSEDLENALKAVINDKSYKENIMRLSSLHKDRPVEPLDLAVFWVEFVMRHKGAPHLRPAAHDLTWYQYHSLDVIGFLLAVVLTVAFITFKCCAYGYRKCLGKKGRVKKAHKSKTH
Sortilin: Sortilin (Homo sapiens, UniProt Q99523)
UniProt Q99523, sequence (whole entry, looked up): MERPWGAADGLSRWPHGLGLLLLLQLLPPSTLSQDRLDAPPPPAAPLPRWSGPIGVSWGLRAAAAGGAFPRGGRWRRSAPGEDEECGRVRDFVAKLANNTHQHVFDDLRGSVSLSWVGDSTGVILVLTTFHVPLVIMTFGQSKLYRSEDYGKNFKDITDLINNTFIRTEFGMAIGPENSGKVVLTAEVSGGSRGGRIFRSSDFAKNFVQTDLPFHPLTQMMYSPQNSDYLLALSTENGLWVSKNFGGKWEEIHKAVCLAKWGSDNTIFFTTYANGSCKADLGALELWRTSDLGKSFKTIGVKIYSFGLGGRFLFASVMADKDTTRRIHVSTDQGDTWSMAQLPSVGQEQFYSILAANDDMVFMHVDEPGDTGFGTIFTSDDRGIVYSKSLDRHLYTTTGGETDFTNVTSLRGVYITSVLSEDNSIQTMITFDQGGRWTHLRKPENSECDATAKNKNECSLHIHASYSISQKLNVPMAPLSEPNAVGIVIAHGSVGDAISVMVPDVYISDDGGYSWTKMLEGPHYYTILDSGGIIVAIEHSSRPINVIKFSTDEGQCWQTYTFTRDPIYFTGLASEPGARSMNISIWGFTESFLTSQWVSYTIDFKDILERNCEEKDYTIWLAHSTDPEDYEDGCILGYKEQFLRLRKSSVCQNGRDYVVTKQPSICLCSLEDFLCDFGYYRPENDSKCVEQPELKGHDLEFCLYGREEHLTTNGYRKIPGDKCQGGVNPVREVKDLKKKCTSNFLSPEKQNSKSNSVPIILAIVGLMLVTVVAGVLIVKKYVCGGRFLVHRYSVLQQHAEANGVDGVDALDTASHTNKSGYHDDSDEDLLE
UniProt P02754, sequence (whole entry, looked up): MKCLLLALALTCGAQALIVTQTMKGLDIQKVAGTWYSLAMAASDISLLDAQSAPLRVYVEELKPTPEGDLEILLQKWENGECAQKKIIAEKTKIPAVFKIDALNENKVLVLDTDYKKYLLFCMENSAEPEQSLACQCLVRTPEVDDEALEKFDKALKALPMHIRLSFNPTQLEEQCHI
UniProt P05177, sequence (whole entry, looked up): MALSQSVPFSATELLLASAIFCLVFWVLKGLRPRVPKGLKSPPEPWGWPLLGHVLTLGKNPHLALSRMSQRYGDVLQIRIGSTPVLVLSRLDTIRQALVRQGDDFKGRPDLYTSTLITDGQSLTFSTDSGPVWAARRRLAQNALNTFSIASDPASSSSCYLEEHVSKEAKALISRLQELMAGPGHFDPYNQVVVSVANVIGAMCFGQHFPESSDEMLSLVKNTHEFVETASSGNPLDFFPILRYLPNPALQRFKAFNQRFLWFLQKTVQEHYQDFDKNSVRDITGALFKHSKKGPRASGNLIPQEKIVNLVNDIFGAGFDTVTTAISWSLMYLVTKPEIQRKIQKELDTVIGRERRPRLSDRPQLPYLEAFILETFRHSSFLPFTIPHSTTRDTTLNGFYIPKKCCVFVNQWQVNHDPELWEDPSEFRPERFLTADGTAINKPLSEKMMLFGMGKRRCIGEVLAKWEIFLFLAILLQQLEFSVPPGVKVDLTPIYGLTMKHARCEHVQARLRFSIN
UniProt P08684, sequence (whole entry, looked up): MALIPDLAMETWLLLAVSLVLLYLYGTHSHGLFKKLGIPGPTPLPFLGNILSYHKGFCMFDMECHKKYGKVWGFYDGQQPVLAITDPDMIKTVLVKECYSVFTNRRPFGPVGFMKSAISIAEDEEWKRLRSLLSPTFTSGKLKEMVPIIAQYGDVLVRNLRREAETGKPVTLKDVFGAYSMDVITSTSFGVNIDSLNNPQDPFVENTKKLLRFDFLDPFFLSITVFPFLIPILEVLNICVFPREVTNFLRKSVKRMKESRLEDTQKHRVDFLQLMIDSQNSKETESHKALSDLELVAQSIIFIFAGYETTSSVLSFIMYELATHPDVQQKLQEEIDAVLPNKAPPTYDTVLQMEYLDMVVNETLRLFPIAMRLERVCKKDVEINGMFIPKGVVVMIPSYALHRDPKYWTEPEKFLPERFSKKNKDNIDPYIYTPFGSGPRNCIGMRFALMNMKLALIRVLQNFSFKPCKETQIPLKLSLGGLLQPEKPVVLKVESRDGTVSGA
UniProt P50225, sequence (whole entry, looked up): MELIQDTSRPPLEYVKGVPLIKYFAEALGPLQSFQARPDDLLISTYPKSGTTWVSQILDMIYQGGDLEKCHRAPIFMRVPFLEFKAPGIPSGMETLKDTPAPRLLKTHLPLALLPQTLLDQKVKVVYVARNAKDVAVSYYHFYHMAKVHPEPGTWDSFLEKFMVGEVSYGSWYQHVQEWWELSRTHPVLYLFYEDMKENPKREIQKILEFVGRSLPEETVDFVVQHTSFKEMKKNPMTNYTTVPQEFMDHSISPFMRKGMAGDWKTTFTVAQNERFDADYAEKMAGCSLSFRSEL
UniProt P19099, sequence (whole entry, unmodified, looked up): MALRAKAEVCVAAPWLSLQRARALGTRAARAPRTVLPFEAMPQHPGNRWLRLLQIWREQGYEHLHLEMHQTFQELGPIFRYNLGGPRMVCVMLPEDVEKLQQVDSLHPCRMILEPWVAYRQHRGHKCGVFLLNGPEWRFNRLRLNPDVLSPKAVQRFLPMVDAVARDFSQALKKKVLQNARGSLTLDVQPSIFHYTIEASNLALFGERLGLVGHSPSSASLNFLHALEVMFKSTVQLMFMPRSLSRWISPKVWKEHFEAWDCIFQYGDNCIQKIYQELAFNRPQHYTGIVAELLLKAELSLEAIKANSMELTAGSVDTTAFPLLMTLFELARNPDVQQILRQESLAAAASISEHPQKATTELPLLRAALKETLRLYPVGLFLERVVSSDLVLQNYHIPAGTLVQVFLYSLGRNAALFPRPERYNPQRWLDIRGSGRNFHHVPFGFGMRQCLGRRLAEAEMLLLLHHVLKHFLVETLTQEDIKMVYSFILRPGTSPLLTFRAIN

For `CC(=O)NCCc1c[nH]c2ccc(O)cc12`, the specific activity was 5.87 ± 0.22 nmol/min/mg (SULT1C4; substrate, sulfation, purified enzyme; 10 µM, 10 min, pH 7.0, 37 °C).
`CN(C)CCCN1c2ccccc2CCc2ccccc21` gave an inhibition of about 40% (UGT1A1; glucuronidation, inhibitor, LC-MS; recombinant human supersomes; concentration not given, 70 min, pH 7.4, with: UGT1A1-specific substrate 20 µM; baseline: DMSO).
Under “AUC(0-inf) (arithmetic mean)”, `Cc1cc(Nc2ncnc3ccc(NC4=NC(C)(CO)CO4)cc23)ccc1Oc1ccn2ncnc2c1` (stereo not drawn) is recorded as 535 ng·h/mL (Cytochrome P450 3A4 (CYP3A4, Homo sapiens, UniProt P08684); human, plasma; oral, 300 mg tucatinib single dose, day 1, tucatinib alone).
For `CC(C)(C)N1Cc2cccc(n2)CN(C(C)(C)C)Cc2cccc(n2)C1`, the pKa was 9.1 (Zn(II) complex; UV-vis titration; bound water deprotonation).
With `CCC(=O)NCC[C@@H]1CCc2cc(O)c3c(c21)CCO3` the specific activity was 2.82 ± 0.02 nmol/min/mg (Sulfotransferase 1A1 (SULT1A1, Homo sapiens, UniProt P50225); substrate, sulfation, purified enzyme; 10 µM, 10 min, pH 7.0, 37 °C).
The Vd/F of `Cn1c(=O)c2c(ncn2C)n(C)c1=O` is reported as 42.5 L (Cytochrome P450 1A2 (CYP1A2, Homo sapiens, UniProt P05177); human, plasma; oral, 200 mg, day 1, alone, geometric mean).
With `CC(C)=CCC/C(C)=C/C=C/C(C)=C/C=C/C(C)=C/C=C/C=C(C)/C=C/C=C(C)/C=C/C=C(\C)CCC=C(C)C` the zeta potential was -9.5 ± 0.36 mV (Beta-lactoglobulin (LGB, Bos taurus, UniProt P02754); protein-carotenoid complex; 298 K).
For `C[C@]12C[C@H](O)[C@H]3[C@@H](CCC4=CC(=O)CC[C@@]43C)[C@@H]1CC[C@@H]2C(=O)CO`, “18-hydroxylation coupling efficiency” read 42.9 ± 4.5% (Cytochrome P450 11B2, mitochondrial (CYP11B2, Homo sapiens, UniProt P19099, A320V); substrate; 100 µM, phospholipid vesicles).
For `C=C1CN(S(=O)(=O)c2ccc(C)cc2)CCc2cc(-c3ccccc3)cc(n2)CCN(S(=O)(=O)c2ccc(C)cc2)C1.Cl`, the selectivity index was over 12.5 (Sortilin; HEK-293T; baseline: CC50 over IC50).
`CC(C)=CCc1cc2c(cc1O)O[C@H](c1ccc(O)cc1)CC2=O` has a CLint of 697 µL/min/mg (UGT1A1; glucuronidation, substrate; recombinant enzyme; pH 7.4).
`C=C1CN(S(=O)(=O)c2ccc(C)cc2)CCCN(Cc2ccccc2)CCCN(S(=O)(=O)c2ccc(C)cc2)C1.Cl` gave a selectivity index of over 23 (Sortilin; HEK-293T; baseline: CC50 over IC50).
The specific activity of `COc1cc2c(CCNC(C)=O)c[nH]c2cc1O` is reported as 3.94 ± 0.07 nmol/min/mg (SULT1C4; substrate, sulfation, purified enzyme; 10 µM, 10 min, pH 7.0, 37 °C).

Excerpt of the above:
For `CC(=O)NCCc1c[nH]c2ccc(O)cc12`, the specific activity was 5.87 ± 0.22 nmol/min/mg (SULT1C4; substrate, sulfation, purified enzyme; 10 µM, 10 min, pH 7.0, 37 °C).
